Measurements gathered from unrelated publications.
A part holds a random share of what one study measured. Several values in a cell are separate wells, animals, samples, runs or records.
Sequence of UniProt O00444 (whole entry, looked up): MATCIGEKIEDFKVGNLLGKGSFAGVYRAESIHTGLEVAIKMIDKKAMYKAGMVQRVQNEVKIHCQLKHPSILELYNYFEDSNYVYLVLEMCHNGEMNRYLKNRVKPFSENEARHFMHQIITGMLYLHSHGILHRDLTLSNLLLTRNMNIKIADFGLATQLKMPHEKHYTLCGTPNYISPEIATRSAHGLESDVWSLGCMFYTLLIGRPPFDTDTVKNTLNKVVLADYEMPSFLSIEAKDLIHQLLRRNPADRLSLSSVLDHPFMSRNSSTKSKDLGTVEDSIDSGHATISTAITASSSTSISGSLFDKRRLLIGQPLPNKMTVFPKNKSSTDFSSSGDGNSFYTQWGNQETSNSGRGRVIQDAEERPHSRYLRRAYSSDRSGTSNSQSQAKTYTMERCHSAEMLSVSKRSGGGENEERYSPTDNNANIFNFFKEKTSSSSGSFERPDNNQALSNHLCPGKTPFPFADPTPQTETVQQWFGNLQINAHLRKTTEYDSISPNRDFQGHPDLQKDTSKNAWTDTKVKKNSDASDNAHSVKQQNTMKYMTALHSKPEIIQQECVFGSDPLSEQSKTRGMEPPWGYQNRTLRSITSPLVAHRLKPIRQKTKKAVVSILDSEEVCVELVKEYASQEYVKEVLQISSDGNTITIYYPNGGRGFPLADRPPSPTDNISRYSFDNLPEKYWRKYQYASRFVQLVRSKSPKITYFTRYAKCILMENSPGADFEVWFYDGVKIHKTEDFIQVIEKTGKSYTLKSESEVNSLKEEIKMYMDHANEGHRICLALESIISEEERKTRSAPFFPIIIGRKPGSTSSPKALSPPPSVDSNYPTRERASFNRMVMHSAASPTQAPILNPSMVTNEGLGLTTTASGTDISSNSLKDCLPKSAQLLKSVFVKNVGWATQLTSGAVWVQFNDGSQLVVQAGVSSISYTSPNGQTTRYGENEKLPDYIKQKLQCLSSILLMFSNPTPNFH
Sequence of UniProt Q13554 (whole entry, looked up): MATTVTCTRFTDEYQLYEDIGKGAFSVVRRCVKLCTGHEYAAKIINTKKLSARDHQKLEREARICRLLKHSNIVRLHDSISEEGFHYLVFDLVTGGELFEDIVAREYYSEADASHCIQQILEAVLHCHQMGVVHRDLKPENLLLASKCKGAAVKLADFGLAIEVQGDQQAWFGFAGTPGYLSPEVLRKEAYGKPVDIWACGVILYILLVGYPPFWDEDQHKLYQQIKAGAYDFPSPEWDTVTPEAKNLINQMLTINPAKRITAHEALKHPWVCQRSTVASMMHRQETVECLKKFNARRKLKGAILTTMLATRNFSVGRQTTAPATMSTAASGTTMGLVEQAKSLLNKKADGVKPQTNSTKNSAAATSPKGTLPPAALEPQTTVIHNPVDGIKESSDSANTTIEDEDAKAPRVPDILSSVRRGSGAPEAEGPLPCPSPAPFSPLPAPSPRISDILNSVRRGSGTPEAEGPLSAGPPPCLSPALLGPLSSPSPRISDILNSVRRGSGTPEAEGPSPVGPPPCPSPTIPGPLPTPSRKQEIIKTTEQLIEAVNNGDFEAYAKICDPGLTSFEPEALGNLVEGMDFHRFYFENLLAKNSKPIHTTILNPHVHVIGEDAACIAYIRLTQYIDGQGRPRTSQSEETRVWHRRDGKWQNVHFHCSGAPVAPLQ
Sequence of UniProt Q04771 (whole entry, looked up): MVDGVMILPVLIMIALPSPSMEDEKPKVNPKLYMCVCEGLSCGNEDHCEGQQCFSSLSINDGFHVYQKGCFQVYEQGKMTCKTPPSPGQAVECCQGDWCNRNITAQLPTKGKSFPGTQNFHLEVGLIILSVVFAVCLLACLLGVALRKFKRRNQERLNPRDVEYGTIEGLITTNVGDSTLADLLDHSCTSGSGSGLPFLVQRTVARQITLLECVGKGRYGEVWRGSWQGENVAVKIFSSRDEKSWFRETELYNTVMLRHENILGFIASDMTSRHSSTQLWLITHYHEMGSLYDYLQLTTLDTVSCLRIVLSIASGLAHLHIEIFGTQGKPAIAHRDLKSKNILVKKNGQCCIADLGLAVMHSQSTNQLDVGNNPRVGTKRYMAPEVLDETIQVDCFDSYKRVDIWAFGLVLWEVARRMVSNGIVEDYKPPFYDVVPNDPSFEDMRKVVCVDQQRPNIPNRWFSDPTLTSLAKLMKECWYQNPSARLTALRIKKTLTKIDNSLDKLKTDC

Set 1
Structure (SMILES): CCC1(c2cccc(-c3cn(C)nc3C)c2)C2=C(Nc3n[nH]cc31)C(F)C(C)(C)CC2=O (single isomer, unassigned)
Tested at: 1 µM
Quantity: remaining binding
ANKK1 (Homo sapiens, UniProt Q8NFD2); kinase binding, KINOMEscan; baseline: DMSO control: 100%
VRK2 (Homo sapiens, UniProt Q86Y07); kinase binding, KINOMEscan; baseline: DMSO control: 100%
MAP3K19 (Homo sapiens, UniProt Q56UN5); kinase binding, KINOMEscan; baseline: DMSO control: 100%
ACVR1 (Homo sapiens, UniProt Q04771); kinase binding, KINOMEscan; baseline: DMSO control: 98%
CLK3 (Homo sapiens, UniProt P49761); binding, competition with immobilised ligand: 100%
CAMK1G (Homo sapiens, UniProt Q96NX5); binding, competition with immobilised ligand: 97%
BRSK2 (Homo sapiens, UniProt Q8IWQ3); kinase binding, KINOMEscan; baseline: DMSO control: 100%
PRKCE (Homo sapiens, UniProt Q02156); binding, competition with immobilised ligand: 100%
CDK17 (Homo sapiens, UniProt Q00537); binding, competition with immobilised ligand: 100%
CDK13 (Homo sapiens, UniProt Q14004); binding, competition with immobilised ligand: 75%
WNK1 (Homo sapiens, UniProt Q9H4A3); kinase binding, KINOMEscan; baseline: DMSO control: 100%
EPHB1 (Homo sapiens, UniProt P54762); kinase binding, KINOMEscan; baseline: DMSO control: 100%

Set 2
SMILES: C=CC(=O)N1CCN(c2nc(OC[C@@H]3CCCN3C)nc3c2CCN(c2cccc4cccc(C)c24)C3)C[C@@H]1CC#N
Effect on: binding
Mode: competitor
Technique: NanoBRET
Cell line: HEK293
Quantity: normalized BRET
KRAS Q61L: GTPase KRas (KRAS, Homo sapiens, UniProt P01116, Q61L)
KRAS Q61R: GTPase KRas (KRAS, Homo sapiens, UniProt P01116, Q61R)
KRAS Q61L; 27.4 nM: 91.3% and 93.1% and 93.3%
KRAS Q61R; 27.4 nM: 104% and 99.3% and 88%
KRAS Q61L; 741 nM: 67.1% and 59.1% and 59.7%
GTPase HRas (HRAS, Homo sapiens, UniProt P01112); 10 µM: 155%
GTPase KRas (KRAS, Homo sapiens, UniProt P01116, G12D); 9.14 nM: 98.2% and 95.4%
KRAS Q61R; 82.2 nM: 103% and 100% and 88.2%

Set 3
SMILES: CCN1/C(=C/C=C2\CCCC(/C=C/C3=[N+](CC)c4ccccc4C3(C)C)=C2NCCCCCCCCN2CCC(Nc3nc4ccccc4n3Cc3ccc(F)cc3)CC2)C(C)(C)c2ccccc21
Cell line: U-87 MG
Tested at: concentration not given
Baseline: DMSO
Quantity: log2 fold change
measured: ATG101 mRNA: 1.03
measured: IMPA2 mRNA: -1.83
measured: RIN1 mRNA: -2.3
measured: MUC20 mRNA: 3.62
measured: C11orf87 mRNA: -3.7
measured: SLC25A38 mRNA: 1.09
measured: CLCF1 mRNA: -1.47
measured: SGO2 mRNA: -1.49
measured: HS3ST3A1 mRNA: -1.86
measured: CLIC3 mRNA: -3.48
measured: RNF44 mRNA: 0.914
measured: DUSP5 mRNA: 2.6

Set 4
Compound: COCC1CC2C(CCC3C(O)CCC32)c2ccc(O)cc21 (centres unmarked)
Quantity: mRNA level ratio
A549; microarray, measured: OLIG2; 100 µM; baseline: untreated: 1
PANC-1; DNA microarray, measured: GAPDH; 100 µM; baseline: untreated cells: 0.619 and 0.617 and 0.641 and 0.622 and 0.627
PANC-1; microarray, measured: GZMK; 25 µM; baseline: untreated: 1
A549; DNA microarray, measured: ACTA2; 100 µM; baseline: untreated cells: 1.48
A549; DNA microarray, measured: KIF20A; 25 µM; baseline: untreated cells: 0.968 and 0.983 and 1.01 and 0.979 and 0.935
SK-OV-3; DNA microarray, measured: C6; 25 µM; baseline: untreated cells: 165
PANC-1; microarray, measured: GZMK; 100 µM; baseline: untreated: 1
A549; DNA microarray, measured: GAPDH; 100 µM; baseline: untreated cells: 0.8 and 0.785 and 0.776 and 0.787 and 0.794
A549; microarray, measured: GZMK; 25 µM; baseline: untreated: 1
A549; microarray, measured: PIF1; 25 µM; baseline: untreated: 0.855
PANC-1; microarray, measured: SPC25; 100 µM; baseline: untreated: 1.4
A549; DNA microarray, measured: TMEM108; 100 µM; baseline: untreated cells: 2.99
A549; microarray, measured: PIF1; 100 µM; baseline: untreated: 0.696
SK-OV-3; microarray, measured: SPC25; 25 µM; baseline: untreated: 0.931

Set 5
Compound: COc1cc(-c2nc3ccc(C(=O)NCCCN4CCN(c5cccc(C)c5C)CC4)cc3n2C2CCC2)cc(OC)c1OC
Quantity: remaining binding
FLT3 (Homo sapiens, UniProt P36888, N841I); binding, competition with immobilised ligand; 1 µM: 83%
DYRK1A (Homo sapiens, UniProt Q13627); binding, competition with immobilised ligand; 1 µM: 95%
MARK3 (Homo sapiens, UniProt P27448); binding, competition with immobilised ligand; 1 µM: 100%
Tyrosine-protein kinase ABL1, phosphorylated (ABL1, Homo sapiens, UniProt P00519); binding, competition with immobilised ligand; 1 µM: 74%
ALK (Homo sapiens, UniProt Q9UM73, L1196M); binding, competition with immobilised ligand; 1 µM: 100%
LRRK2 (Homo sapiens, UniProt Q5S007); binding, competition with immobilised ligand; 1 µM: 100%
PLK4 (Homo sapiens, UniProt O00444); binding, competition with immobilised ligand; 1 µM: 91%
CDKL3 (Homo sapiens, UniProt Q8IVW4); binding, competition with immobilised ligand; 1 µM: 73%
PHKG2 (Homo sapiens, UniProt P15735); binding, competition with immobilised ligand; 1 µM: 91%
STK33 (Homo sapiens, UniProt Q9BYT3); binding, competition with immobilised ligand; 1 µM: 83%
GRK1 (Homo sapiens, UniProt Q15835); binding, competition with immobilised ligand; 1 µM: 90%
LATS1 (Homo sapiens, UniProt O95835); KINOMEscan; 1000 nM: 100%
NEK6 (Homo sapiens, UniProt Q9HC98); binding, competition with immobilised ligand; 1 µM: 100%
MKNK2 (Homo sapiens, UniProt Q9HBH9); binding, competition with immobilised ligand; 1 µM: 98%
CAMK2B (Homo sapiens, UniProt Q13554); binding, competition with immobilised ligand; 1 µM: 93%
FGFR3 (Homo sapiens, UniProt P22607, G697C); binding, competition with immobilised ligand; 1 µM: 100%
SLK (Homo sapiens, UniProt Q9H2G2); binding, competition with immobilised ligand; 1 µM: 25%

Set 6
Structure (SMILES): C[C@@H]1CN(c2ccc(-c3cc(C(=O)NCCOCCOCCOCCOCCOCCOCCNC(=O)/C=C/c4[nH]cc(C(=O)N[C@@H](CC(N)=O)c5ccc(F)c(Cl)c5)c4-c4ccc(Cl)cc4F)ccc3F)cc2NC(=O)c2ccc(F)cc2C(F)(F)F)C[C@H](C)N1C
Effect on: thermal unfolding
Technique: differential scanning fluorimetry
Tested at: 5.5 µM
Reading: higher = more unfolded
Quantity: SYPRO Orange fluorescence
WDR5: WD repeat-containing protein 5 (WDR5, Homo sapiens, UniProt P61964)
DCAF1: DDB1- and CUL4-associated factor 1 (DCAF1, Homo sapiens, UniProt Q9Y4B6)
Sequence of UniProt Q9Y4B6 (whole entry, looked up): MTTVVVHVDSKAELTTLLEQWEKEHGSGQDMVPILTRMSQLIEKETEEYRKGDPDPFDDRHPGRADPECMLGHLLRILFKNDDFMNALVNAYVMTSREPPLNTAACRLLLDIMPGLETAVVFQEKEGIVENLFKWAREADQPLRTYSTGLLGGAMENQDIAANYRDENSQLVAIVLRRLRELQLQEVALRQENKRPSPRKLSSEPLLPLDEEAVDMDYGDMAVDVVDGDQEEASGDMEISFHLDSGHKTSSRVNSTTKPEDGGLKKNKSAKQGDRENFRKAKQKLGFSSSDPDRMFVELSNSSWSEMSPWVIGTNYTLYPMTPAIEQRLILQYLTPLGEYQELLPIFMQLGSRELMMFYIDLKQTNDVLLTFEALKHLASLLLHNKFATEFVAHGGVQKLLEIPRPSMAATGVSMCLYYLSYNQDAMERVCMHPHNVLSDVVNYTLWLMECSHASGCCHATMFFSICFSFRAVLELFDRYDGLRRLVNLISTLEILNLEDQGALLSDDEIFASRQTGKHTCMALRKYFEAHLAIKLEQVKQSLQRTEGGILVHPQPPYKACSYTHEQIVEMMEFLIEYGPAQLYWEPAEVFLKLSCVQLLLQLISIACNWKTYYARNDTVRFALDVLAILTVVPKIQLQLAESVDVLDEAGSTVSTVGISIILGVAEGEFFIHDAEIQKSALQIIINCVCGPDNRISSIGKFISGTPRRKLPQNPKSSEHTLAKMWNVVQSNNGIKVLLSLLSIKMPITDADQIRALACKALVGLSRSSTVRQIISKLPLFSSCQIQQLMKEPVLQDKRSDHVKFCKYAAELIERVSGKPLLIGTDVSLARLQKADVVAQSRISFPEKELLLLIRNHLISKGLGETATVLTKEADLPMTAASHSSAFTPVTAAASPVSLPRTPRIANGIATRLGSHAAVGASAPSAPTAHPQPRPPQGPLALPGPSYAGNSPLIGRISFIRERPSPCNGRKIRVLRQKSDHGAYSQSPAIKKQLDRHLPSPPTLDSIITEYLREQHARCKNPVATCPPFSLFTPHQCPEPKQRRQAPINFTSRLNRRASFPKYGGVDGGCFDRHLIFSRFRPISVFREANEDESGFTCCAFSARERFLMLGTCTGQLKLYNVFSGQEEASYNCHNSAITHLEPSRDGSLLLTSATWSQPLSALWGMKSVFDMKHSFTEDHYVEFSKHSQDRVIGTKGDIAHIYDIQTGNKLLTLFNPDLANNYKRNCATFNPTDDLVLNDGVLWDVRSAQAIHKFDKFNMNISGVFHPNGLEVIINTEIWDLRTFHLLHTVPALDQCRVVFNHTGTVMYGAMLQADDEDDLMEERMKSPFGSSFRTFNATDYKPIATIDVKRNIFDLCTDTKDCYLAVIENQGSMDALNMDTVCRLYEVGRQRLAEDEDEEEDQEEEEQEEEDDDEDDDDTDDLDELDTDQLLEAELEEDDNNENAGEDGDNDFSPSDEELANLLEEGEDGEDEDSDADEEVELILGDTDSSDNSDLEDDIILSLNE
WDR5; 50.6 °C: 16600 a.u.
WDR5; 80.21 °C: 65000 a.u.
WDR5; 26.6 °C: 13300 a.u.
WDR5; 81.41 °C: 65700 a.u.
WDR5; 72.61 °C: 38200 a.u.
WDR5; 81.81 °C: 65700 a.u.
WDR5; 51 °C: 16700 a.u.
DCAF1; 56.61 °C: 32700 a.u.
WDR5; 92.81 °C: 50800 a.u.
DCAF1; 44.6 °C: 14400 a.u.
DCAF1; 61.01 °C: 50400 a.u.

Set 7
SMILES: CNc1ncc2cc(-c3cc(OC)cc(OC)c3Cl)c(=O)n(CCc3ccc(NC(=O)C(C#N)=CC(C)(C)N4CCOCC4)cc3)c2n1
Effect on: kinase activity
Quantity: inhibition
FYN (Homo sapiens, UniProt P06241); 1 µM: 9%
MAPKAPK3 (Homo sapiens, UniProt Q16644); 0.1 µM: -1%
Aurora kinase C (AURKC, Homo sapiens, UniProt Q9UQB9); 0.1 µM: -1%
MAPK11 (Homo sapiens, UniProt Q15759); 1 µM: 3%
MERTK (Homo sapiens, UniProt Q12866); 1 µM: -2%
LTK (Homo sapiens, UniProt P29376); 1 µM: 1%
TBK1 (Homo sapiens, UniProt Q9UHD2); 0.1 µM: 0%
IGF1R (Homo sapiens, UniProt P08069); 0.1 µM: 3%
PLK4 (Homo sapiens, UniProt O00444); 1 µM: 5%
MST1R (Homo sapiens, UniProt Q04912); 1 µM: 2%
CLK1 (Homo sapiens, UniProt P49759); 0.1 µM: 4%

Single results of other studies
PKMYT1: Membrane-associated tyrosine- and threonine-specific cdc2-inhibitory kinase (PKMYT1, Homo sapiens, UniProt Q99640)
Sequence of UniProt Q99640 (whole entry, looked up): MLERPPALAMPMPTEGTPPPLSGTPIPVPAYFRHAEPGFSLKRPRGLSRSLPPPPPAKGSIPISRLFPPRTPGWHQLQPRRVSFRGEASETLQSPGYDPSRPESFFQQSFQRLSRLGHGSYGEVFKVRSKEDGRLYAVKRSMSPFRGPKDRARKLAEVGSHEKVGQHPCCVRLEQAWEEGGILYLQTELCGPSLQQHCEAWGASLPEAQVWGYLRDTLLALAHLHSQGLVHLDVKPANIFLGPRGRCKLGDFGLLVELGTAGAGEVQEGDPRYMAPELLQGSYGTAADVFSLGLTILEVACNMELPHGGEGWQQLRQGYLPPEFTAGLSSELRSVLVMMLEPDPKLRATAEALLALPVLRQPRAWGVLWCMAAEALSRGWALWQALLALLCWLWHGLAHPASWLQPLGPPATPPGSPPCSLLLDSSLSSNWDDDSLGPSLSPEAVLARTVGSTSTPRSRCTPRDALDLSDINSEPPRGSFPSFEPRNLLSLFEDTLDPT
MPO: Myeloperoxidase (MPO, Homo sapiens, UniProt P05164)
Sequence of UniProt P05164 (whole entry, looked up): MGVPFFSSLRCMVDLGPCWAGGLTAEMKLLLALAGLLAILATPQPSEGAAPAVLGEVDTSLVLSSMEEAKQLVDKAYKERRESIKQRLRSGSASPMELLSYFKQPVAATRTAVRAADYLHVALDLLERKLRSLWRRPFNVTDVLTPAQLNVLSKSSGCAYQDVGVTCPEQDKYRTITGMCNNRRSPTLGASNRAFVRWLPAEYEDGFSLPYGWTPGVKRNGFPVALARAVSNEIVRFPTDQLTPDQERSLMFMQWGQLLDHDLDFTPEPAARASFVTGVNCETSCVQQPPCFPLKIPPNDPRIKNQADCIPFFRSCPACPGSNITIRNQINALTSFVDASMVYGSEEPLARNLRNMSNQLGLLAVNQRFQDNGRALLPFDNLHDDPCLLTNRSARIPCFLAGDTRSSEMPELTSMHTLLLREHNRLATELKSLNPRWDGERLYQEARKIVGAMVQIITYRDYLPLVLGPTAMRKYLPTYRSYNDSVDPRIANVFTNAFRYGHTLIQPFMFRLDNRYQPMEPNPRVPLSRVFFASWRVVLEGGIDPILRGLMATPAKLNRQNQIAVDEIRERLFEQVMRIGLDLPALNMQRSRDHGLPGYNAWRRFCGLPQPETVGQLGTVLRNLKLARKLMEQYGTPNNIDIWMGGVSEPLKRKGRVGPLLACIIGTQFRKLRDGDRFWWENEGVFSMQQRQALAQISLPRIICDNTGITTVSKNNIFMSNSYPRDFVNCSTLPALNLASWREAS
Cc1ccc(O)c(C)c1-c1cnc2[nH]c(-c3cnc(N4CCC5(CC4)CC(N4CCN(c6ccc7c(c6)C(=O)N(C6CCC(=O)NC6=O)C7=O)CC4)CO5)nc3)cc2c1C#N (mixture of isomers)
inhibition (PKMYT1; binding, HTRF; 0.15 nM): 2.01% and 3.73%

NC/C(=C\F)COc1ccc(-c2cc(=O)[nH]c(=S)n2CC(N)=O)c(Cl)c1
inhibition (MPO; enzyme activity, inhibitor, fluorescence; 0.3704 µM): 74.7%

Cc1ccc(O)c(C)c1-c1cnc2[nH]c(-c3cnc(N4CCC5(CC4)CC(N4CCN(c6ccc(NC7CCC(=O)NC7=O)cc6F)CC4)CO5)nc3)cc2c1C#N (centres unmarked)
DC50 (PKMYT1; degrader; HCC1599): 0.5 nM

NC/C(=C\F)COc1ccc(C(F)(F)F)c(Cn2c(=S)[nH]c(=O)c3[nH]cnc32)c1
inhibition (MPO; enzyme activity; 0.0015 µM): -15.5% and 11.5%

Cc1ccc(O)c(C)c1-c1cnc2[nH]c(-c3cnc(N4CCC(CN5CCN(c6ccc(NC7CCC(=O)NC7=O)cc6F)CC5)CC4)nc3)cc2c1C#N (centres unmarked)
clearance (male Sprague-Dawley rat, plasma; intravenous, 1 mg/kg): 8.6 mL/min/kg

Cc1ncc(-c2cc3c(C#N)c(-c4c(C)ccc(O)c4C)cnc3[nH]2)cn1
plasma concentration (Sprague-Dawley rat; intravenous, dose not given, 24 h): not detected

Excerpt of the above (set 3):
measured: CLIC3 mRNA: -3.48
measured: CLCF1 mRNA: -1.47
measured: RIN1 mRNA: -2.3
measured: C11orf87 mRNA: -3.7
measured: DUSP5 mRNA: 2.6
measured: RNF44 mRNA: 0.914
measured: SLC25A38 mRNA: 1.09
measured: ATG101 mRNA: 1.03
